Published values from different studies.
± marks the error that the study gave.
Chain of UniProt P51617 (whole entry, looked up): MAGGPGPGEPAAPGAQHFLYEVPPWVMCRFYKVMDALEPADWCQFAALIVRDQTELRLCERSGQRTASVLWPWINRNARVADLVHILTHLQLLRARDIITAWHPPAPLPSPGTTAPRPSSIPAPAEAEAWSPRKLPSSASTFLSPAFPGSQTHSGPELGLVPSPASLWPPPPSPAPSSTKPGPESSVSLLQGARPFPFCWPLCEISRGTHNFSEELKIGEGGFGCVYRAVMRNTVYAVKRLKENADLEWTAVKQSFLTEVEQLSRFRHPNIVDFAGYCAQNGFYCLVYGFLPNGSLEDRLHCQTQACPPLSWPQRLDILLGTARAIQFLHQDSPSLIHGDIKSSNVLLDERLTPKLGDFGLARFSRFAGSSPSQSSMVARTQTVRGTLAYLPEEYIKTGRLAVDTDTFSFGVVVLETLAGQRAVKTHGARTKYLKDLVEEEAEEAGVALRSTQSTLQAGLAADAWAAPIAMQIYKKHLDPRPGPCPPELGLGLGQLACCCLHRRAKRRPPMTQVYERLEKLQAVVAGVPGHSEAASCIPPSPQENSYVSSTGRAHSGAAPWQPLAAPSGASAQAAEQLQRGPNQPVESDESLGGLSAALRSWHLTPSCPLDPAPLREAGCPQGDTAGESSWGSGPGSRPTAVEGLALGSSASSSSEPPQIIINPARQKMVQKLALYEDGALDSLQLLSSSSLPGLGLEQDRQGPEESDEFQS
Chain of UniProt Q9Y2J8 (whole entry, looked up): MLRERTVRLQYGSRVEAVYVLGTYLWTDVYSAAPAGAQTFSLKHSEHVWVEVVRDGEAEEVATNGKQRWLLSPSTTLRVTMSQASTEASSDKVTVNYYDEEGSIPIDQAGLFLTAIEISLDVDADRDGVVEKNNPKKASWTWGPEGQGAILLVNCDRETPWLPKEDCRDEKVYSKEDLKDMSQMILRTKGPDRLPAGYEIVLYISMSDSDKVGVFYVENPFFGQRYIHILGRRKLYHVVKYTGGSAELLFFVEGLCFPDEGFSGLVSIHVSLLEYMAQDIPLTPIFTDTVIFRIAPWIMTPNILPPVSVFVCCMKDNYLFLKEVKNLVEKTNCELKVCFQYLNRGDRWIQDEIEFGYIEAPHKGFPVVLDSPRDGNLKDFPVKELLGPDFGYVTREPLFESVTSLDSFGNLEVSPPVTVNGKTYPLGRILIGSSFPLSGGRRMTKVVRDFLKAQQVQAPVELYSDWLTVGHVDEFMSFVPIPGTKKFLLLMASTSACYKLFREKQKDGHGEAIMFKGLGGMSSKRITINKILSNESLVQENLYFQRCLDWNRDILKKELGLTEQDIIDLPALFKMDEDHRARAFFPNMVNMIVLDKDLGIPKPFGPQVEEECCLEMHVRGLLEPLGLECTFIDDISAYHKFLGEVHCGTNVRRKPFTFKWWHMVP
Chain of UniProt Q9UKE5 (whole entry, looked up): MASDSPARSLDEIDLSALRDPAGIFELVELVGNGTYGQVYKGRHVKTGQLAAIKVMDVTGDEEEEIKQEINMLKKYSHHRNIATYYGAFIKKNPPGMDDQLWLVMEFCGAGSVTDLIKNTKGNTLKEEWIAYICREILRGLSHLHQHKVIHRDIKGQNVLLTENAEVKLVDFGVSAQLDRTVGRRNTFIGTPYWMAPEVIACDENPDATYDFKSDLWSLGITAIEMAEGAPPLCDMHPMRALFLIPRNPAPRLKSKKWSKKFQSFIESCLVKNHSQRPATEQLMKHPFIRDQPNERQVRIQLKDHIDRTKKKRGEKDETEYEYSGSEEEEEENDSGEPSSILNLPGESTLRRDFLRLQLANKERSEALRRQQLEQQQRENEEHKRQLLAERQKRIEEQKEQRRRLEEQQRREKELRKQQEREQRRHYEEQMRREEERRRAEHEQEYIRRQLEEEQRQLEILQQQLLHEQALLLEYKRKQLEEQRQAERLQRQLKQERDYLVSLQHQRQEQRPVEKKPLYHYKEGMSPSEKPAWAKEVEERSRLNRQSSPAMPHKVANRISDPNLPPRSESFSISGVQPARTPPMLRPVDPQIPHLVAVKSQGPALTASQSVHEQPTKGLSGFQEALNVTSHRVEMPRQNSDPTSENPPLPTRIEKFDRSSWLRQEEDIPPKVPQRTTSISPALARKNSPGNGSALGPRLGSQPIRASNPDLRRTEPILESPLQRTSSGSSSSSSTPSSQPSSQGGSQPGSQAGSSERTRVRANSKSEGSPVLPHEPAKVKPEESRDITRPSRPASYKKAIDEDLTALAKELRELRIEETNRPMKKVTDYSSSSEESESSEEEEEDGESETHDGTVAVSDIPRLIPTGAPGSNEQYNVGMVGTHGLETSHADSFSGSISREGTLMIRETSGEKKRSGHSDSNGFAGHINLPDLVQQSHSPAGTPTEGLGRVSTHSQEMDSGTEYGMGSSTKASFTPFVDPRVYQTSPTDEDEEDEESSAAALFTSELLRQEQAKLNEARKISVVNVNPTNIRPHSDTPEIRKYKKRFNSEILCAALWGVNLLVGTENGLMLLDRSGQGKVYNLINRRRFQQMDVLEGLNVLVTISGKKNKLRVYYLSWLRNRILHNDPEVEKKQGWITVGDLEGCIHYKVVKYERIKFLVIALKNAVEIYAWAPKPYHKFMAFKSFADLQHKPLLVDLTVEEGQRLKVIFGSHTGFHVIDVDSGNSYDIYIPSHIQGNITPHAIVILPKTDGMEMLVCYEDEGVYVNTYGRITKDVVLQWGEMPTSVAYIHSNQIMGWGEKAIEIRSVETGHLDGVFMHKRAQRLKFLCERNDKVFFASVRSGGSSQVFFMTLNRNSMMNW
Chain of UniProt P42338 (whole entry, looked up): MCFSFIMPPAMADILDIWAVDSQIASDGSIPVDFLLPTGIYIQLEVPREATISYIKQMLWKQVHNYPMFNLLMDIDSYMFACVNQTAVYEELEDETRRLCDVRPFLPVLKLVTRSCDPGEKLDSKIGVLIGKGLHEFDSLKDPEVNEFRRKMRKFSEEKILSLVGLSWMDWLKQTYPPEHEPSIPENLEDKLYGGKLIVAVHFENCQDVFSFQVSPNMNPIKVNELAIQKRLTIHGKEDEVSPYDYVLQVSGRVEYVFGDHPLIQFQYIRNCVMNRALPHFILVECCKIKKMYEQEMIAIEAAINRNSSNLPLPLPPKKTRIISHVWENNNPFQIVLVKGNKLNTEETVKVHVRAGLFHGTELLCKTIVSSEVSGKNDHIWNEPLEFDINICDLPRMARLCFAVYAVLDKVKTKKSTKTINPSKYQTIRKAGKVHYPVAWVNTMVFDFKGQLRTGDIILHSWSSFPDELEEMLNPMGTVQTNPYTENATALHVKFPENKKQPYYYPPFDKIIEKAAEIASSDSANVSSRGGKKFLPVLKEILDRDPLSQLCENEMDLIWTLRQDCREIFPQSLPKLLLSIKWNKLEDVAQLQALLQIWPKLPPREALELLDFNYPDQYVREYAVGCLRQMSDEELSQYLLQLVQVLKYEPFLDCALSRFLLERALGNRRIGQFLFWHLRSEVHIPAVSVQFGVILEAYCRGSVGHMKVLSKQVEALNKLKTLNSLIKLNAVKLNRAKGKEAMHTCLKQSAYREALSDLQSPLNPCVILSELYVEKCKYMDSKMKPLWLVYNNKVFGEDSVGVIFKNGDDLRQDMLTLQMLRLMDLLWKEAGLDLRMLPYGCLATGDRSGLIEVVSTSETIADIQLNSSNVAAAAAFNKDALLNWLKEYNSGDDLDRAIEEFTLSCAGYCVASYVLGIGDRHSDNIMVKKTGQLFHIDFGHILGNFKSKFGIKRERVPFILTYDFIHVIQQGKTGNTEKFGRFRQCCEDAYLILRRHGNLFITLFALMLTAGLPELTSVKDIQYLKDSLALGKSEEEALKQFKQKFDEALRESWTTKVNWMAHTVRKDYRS
Chain of UniProt Q15418 (whole entry, looked up): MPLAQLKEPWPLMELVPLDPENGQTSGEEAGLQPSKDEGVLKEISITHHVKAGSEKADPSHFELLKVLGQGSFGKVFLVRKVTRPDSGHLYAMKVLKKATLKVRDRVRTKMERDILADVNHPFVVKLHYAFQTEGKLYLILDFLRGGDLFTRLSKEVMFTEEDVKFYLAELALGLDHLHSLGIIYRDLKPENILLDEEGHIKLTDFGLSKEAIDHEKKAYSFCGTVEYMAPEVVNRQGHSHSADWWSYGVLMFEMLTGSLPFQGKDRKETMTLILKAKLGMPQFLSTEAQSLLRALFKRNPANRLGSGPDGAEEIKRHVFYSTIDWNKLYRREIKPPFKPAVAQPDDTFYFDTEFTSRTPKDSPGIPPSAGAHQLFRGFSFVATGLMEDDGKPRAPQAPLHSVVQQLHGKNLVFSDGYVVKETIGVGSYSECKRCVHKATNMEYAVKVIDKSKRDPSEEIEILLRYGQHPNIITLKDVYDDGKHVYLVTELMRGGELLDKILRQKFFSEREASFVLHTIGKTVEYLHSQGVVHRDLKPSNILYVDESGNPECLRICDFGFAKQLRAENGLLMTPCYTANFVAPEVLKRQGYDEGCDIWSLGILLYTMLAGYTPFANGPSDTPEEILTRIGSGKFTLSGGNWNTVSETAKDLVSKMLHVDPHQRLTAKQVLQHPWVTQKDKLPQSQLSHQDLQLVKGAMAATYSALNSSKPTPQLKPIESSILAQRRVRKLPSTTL
Chain of UniProt Q86UX6 (whole entry, looked up): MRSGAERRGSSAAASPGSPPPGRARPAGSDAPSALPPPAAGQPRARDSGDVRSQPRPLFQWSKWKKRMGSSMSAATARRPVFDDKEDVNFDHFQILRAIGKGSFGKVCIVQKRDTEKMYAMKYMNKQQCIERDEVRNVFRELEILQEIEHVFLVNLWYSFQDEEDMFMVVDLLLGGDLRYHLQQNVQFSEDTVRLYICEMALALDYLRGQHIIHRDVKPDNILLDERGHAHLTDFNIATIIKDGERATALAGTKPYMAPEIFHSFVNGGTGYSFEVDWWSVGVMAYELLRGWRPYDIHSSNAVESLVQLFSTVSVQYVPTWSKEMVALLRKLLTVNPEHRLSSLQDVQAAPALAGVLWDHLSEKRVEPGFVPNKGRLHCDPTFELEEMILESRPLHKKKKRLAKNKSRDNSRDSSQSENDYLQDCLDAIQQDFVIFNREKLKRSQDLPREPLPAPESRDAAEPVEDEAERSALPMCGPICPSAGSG

| Compound | target or system | test | system | setting | endpoint | result |
| --- | --- | --- | --- | --- | --- | --- |
| CS(C)(=O)=Nc1ccc(-c2ccc(-c3nc4cc(O[C@@H]5CO[C@H]6[C@@H]5OC[C@H]6O)[nH]c4cc3F)cc2)cc1 | Phosphatidylinositol 4,5-bisphosphate 3-kinase catalytic subunit beta isoform, with p85 alpha (PIK3CB, Homo sapiens, UniProt P42338) | kinase activity | – | 10 µM | inhibition | -2% |
| CC(C)[C@H]1NC(=O)C[C@H]2/C=C/CCSSC[C@@H](NC1=O)C(=O)N[C@H](Cc1cccc3ccccc13)C(=O)NCC(=O)O2 | Tyrosine-protein kinase FRK (FRK, Homo sapiens, UniProt P42685) | enzyme activity, inhibitor | – | 10 µM | inhibition | -3.7% |
| O=C(O)c1ccccc1/C=N/Nc1nc(-c2ccccc2Cl)cs1 | Ribosomal protein S6 kinase alpha-1 (RPS6KA1, Homo sapiens, UniProt Q15418) | enzyme activity, inhibitor | – | 1 µM | inhibition | -2.4% |
| O=C1NC2(CC2)COc2ncc(F)cc2[C@H]2COCCN2c2ccn3ncc1c3n2 | – | – | Sprague-Dawley rat, female, ovaries | oral, 5 mg/kg/day, 4 weeks, end of treatment | organ-to-body weight ratio | 0.037 ± 0.006% |
| CN(C)[C@H]1C[C@@]23CC[C@@]4(O2)C(=CC[C@]2(C)[C@@H](c5ccc6ccncc6c5)CC[C@H]24)C=C3[C@@H](O)[C@@H]1O | Interleukin-1 receptor-associated kinase 1 (IRAK1, Homo sapiens, UniProt P51617) | ATP probe labelling, inhibitor, KiNativ profiling | – | 1 µM | inhibition | -3.1% |
| COc1ccc(F)cc1S(=O)(=O)Nc1cnc2c(c1)C(=O)NCCO2 | adrenergic alpha1B receptor | radioligand binding | – | 10 µM | inhibition | -2% |
| N[C@H](C(=O)N1CCCC1)C1CCN(c2nccc3c(-c4ncc(Cl)cc4Cl)cccc23)CC1 | Protein-arginine deiminase type-2 (PADI2, Homo sapiens, UniProt Q9Y2J8) | enzyme activity, GDH-coupled | – | 0.01573 µM, added: 1.5 mM Ca2+ (high) | inhibition | 2.45% |
| CN(/N=C/c1ccccc1C(=O)O)c1nc(-c2ccccc2Cl)cs1 | TRAF2 and NCK-interacting protein kinase (TNIK, Homo sapiens, UniProt Q9UKE5) | enzyme activity, inhibitor | – | 1 µM | inhibition | -6.85% |
| C[C@H](NCc1ccc(-c2ccc(C(F)(F)F)cc2)cc1)C(N)=O | Serine/threonine-protein kinase 32C (STK32C, Homo sapiens, UniProt Q86UX6) | cell-free assay, competition with immobilised ligand | – | 1 µM | inhibition | 0% |
| CN[C@@H]1[C@H](O)[C@H](NC)[C@H]2O[C@]3(O)[C@H](O[C@@H]2[C@H]1O)O[C@H](C)C[C@H]3NC(=O)Cc1cc(Cl)ccn1 | Platelet-activating factor receptor (PTAFR, Homo sapiens, UniProt P25105) | ligand displacement, radioligand | – | 10 µM | inhibition | 6% |

Excerpt of the above:
| Compound | target or system | test | system | setting | endpoint | result |
| --- | --- | --- | --- | --- | --- | --- |
| CC(C)[C@H]1NC(=O)C[C@H]2/C=C/CCSSC[C@@H](NC1=O)C(=O)N[C@H](Cc1cccc3ccccc13)C(=O)NCC(=O)O2 | Tyrosine-protein kinase FRK (FRK, Homo sapiens, UniProt P42685) | enzyme activity, inhibitor | – | 10 µM | inhibition | -3.7% |
